Assay results pooled from the literature.
A part holds a random share of what one study measured.
Sequence of UniProt P43403 (whole entry, looked up): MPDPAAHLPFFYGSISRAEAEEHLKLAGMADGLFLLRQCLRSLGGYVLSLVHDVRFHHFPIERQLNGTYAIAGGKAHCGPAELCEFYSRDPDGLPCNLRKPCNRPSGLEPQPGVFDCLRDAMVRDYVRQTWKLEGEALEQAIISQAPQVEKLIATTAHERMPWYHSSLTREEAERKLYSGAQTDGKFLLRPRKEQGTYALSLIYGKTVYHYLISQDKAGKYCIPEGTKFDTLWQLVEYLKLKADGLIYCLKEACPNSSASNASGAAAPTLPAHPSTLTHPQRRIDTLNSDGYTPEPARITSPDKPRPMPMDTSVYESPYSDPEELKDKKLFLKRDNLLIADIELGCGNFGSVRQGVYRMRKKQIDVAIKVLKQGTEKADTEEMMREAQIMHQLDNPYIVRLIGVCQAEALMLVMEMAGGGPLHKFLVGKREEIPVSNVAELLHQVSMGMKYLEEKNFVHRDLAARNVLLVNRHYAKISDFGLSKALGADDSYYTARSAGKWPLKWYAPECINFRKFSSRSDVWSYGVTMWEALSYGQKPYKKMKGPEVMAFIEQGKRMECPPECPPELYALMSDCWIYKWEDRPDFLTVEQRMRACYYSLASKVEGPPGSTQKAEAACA
Sequence of UniProt Q16539 (whole entry, looked up): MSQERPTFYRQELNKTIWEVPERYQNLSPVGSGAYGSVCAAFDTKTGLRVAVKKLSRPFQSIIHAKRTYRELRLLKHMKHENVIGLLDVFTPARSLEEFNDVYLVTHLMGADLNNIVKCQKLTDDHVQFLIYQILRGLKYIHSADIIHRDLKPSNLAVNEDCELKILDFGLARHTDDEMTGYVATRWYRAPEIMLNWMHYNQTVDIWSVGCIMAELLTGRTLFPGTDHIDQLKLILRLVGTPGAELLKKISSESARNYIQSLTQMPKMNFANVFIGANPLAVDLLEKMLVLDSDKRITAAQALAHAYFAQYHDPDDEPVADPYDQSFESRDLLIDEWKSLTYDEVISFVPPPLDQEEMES
Sequence of UniProt O76039 (whole entry, looked up): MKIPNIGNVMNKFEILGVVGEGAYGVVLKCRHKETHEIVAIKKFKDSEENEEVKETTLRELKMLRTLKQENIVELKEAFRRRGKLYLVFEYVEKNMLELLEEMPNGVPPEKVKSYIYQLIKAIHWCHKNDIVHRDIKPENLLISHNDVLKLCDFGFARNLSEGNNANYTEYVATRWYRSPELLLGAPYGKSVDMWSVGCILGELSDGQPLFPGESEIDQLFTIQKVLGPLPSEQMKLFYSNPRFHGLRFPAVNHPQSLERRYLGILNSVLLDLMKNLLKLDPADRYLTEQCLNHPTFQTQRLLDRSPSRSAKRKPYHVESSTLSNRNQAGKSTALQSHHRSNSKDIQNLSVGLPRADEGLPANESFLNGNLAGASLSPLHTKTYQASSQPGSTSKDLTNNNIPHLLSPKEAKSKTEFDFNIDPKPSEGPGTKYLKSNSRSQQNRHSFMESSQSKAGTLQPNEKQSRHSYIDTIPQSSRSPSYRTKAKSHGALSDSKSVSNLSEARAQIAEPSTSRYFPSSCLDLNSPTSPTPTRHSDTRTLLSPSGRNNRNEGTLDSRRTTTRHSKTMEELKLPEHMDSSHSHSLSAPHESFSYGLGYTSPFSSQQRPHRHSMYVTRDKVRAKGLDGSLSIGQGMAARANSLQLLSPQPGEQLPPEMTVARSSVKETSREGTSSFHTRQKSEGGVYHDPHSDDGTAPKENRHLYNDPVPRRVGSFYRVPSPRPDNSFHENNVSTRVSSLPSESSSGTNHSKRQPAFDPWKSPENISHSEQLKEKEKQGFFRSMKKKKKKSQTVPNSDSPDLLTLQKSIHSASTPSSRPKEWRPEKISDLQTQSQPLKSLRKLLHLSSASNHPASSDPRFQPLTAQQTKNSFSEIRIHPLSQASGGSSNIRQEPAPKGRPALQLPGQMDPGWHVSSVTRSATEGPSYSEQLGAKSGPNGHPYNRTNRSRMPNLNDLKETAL
Sequence of UniProt Q96SB4 (whole entry, looked up): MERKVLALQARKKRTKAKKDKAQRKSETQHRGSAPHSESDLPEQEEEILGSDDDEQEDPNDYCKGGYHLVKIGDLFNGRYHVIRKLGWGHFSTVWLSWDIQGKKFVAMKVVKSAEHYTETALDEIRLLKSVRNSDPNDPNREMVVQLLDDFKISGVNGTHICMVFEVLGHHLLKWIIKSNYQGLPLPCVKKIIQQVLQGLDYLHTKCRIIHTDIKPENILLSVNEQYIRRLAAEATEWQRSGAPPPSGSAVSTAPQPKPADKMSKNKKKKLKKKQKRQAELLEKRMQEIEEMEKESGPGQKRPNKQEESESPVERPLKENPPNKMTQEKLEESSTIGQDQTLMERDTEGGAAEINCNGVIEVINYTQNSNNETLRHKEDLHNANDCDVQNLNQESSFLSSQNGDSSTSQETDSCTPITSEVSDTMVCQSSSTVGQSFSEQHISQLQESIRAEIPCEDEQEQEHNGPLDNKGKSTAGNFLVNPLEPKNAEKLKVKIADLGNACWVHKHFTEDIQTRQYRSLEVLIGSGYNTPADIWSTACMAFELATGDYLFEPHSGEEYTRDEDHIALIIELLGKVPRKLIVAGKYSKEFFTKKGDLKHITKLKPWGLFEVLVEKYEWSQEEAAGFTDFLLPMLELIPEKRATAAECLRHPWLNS
Sequence of UniProt P49840 (whole entry, looked up): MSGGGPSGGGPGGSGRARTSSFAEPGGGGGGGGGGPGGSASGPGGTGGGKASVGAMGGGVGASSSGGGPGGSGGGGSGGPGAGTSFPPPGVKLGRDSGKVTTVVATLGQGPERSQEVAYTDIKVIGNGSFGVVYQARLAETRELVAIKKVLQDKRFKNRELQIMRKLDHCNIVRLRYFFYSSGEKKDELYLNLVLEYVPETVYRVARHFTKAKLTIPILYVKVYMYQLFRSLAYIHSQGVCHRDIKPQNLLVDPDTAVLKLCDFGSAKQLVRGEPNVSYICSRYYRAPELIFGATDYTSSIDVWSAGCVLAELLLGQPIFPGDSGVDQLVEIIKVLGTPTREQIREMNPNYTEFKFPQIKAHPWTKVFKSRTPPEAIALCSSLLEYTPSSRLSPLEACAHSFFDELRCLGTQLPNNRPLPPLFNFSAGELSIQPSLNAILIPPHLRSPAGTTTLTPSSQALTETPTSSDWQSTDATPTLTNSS
Sequence of UniProt Q9UL54 (whole entry, looked up): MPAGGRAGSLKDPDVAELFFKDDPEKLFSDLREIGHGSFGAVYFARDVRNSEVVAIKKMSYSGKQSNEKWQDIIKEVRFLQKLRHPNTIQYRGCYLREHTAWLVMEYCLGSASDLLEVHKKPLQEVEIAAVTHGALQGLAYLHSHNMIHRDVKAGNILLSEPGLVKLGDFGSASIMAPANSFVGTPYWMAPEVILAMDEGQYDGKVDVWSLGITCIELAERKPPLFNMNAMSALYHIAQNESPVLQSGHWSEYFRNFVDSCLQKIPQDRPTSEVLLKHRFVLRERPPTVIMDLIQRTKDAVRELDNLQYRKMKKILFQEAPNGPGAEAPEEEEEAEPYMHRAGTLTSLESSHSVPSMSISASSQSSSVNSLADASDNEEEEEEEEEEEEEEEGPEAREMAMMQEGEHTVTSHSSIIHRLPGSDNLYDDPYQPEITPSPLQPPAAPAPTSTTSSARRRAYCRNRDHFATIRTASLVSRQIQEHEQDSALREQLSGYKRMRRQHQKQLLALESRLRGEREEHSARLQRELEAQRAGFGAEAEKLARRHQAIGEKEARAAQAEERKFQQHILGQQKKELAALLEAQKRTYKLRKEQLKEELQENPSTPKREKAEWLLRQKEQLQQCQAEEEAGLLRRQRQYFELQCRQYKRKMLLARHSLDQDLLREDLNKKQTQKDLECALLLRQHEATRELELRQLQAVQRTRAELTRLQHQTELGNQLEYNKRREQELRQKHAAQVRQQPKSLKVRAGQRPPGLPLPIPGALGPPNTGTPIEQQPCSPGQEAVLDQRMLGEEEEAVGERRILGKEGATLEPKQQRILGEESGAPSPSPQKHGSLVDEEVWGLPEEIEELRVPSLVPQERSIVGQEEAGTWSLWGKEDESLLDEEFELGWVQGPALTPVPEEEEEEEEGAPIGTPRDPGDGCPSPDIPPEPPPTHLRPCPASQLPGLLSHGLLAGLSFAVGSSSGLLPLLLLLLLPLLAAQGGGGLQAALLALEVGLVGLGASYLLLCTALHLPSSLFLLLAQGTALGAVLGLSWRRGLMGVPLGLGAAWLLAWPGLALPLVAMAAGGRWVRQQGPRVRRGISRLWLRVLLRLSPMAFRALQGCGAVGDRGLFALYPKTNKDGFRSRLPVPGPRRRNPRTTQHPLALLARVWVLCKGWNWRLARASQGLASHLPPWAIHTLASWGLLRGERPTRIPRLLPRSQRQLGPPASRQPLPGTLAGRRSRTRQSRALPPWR

Series 1
Target: Beta-1 adrenergic receptor (ADRB1, Homo sapiens, UniProt P08588)
Sequence of UniProt P08588 (whole entry, looked up): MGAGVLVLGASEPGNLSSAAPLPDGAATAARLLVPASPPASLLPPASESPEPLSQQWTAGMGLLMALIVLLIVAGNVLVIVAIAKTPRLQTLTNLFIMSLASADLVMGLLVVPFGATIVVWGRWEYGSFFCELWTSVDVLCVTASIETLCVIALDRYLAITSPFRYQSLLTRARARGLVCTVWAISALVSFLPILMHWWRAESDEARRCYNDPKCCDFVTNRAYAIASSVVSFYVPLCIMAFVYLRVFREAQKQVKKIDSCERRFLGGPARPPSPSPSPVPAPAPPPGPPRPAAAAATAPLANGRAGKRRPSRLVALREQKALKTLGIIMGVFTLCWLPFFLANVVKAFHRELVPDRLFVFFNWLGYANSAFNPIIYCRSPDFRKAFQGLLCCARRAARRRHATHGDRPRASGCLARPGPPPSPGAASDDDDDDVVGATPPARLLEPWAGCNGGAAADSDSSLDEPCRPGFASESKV
Mode: antagonist
| SMILES | IC50 |
| --- | --- |
| FC(F)(F)c1cccc(-c2noc(-c3c[nH]nc3-c3ccccc3)n2)c1 | ≥ 100 µM |
| O=C1COC[C@H]([C@H](O)c2ccc(NC(=O)c3ccccc3)cc2)N1 | ≥ 100 µM |
| C[C@H](O)c1onc(-c2ccccc2)c1C(=O)NC1CCOCC1 | ≥ 100 µM |
| CCOc1ccccc1N1CCN([S+](=O)([O-])c2cc(OC)ccc2OC)CC1 | ≥ 100 µM |
| Cc1noc2c(-c3ccc(N4CCOCC4)cc3)cc(-c3ccccc3)nc12 | ≥ 100 µM |
| C[C@H](O)c1onc(-c2ccccc2)c1C(=O)N1CCOCC1 | ≥ 100 µM |
| O=C1COc2ccc(N3CCOCC3)nc2CN1Cc1ccc(F)cc1 | ≥ 100 µM |
| N#CC(c1ccccc1)c1cnn(-c2ccccc2)c(=O)c1Cl (stereo not drawn) | ≥ 100 µM |
| Nn1c(SCc2cc(=O)oc3cc(O)ccc23)nnc1-c1ccccc1Br | ≥ 100 µM |
| CC(O)CNCc1c(Cl)cccc1Cl (stereo not drawn) | ≥ 100 µM |

Series 2
SMILES: CO[C@@H](C)c1c(Nc2ccc([C@H](N(C)C(=O)C3CCS(=O)(=O)CC3)C(F)(F)F)cc2)cnc2cc(Cl)nn12
Observed: cell-free assay
Method: competition with immobilised ligand
Concentration: 1 µM
| target | remaining binding [%] |
| --- | --- |
| WNK4 (Homo sapiens, UniProt Q96J92) | 99 |
| COQ8B (Homo sapiens, UniProt Q96D53) | 77 |
| CDKL5 (Homo sapiens, UniProt O76039) | 95 |
| SRPK1 (Homo sapiens, UniProt Q96SB4) | 96 |
| TAOK2 (Homo sapiens, UniProt Q9UL54) | 88 |
| MAPK14 (Homo sapiens, UniProt Q16539) | 88 |
| GSK3A (Homo sapiens, UniProt P49840) | 86 |
| SIK2 (Homo sapiens, UniProt Q9H0K1) | 87 |
| Tyrosine-protein kinase ABL1, phosphorylated (ABL1, Homo sapiens, UniProt P00519, Y253F) | 100 |
| TEC (Homo sapiens, UniProt P42680) | 84 |
| NEK5 (Homo sapiens, UniProt Q6P3R8) | 84 |
| MAPK4 (Homo sapiens, UniProt P31152) | 94 |
| ZAP70 (Homo sapiens, UniProt P43403) | 100 |
| STK36 (Homo sapiens, UniProt Q9NRP7) | 91 |

Series 3
Target: cAMP-dependent protein kinase catalytic subunit PRKX (PRKX, Homo sapiens, UniProt P51817)
Observed: enzyme activity
Mode: inhibitor
Concentration: 0.5 µM
Relative to: control
Construct (P51817 1-358): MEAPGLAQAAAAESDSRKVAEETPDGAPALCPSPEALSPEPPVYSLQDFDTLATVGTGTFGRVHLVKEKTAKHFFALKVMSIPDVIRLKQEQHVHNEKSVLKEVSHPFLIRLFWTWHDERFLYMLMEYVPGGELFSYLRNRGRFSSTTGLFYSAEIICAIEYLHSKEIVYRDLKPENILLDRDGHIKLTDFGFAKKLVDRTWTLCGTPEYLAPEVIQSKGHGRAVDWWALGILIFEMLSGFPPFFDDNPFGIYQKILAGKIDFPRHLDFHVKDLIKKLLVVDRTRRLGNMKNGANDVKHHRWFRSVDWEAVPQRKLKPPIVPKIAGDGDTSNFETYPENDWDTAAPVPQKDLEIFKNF
| SMILES | remaining activity |
| --- | --- |
| Cc1cc(Nc2nc(-c3ccccc3)nc3ccccc23)n[nH]1 | 101% |
| N#CC(=C(N)Sc1ccc(N)cc1)c1ccccc1C(F)(F)F | 98.9% |
| Nc1nccc(-c2c(-c3ccc(F)cc3)ncn2C2CCNCC2)n1 | 96.8% |
| CC#CC(=O)Nc1cc2c(Nc3ccc(F)c(Cl)c3)ncnc2cn1 | 103% |
| Oc1ccc(Nc2nc(-c3ccc(Cl)cc3)cs2)cc1 | 99.6% |
| CSc1nc(-c2ccnc(N[C@@H](C)c3ccccc3)c2)c(-c2ccc(F)cc2)[nH]1 (racemic) | 91.5% |
| O=C1Cc2c([nH]c3ccc([N+](=O)[O-])cc23)-c2ccccc2N1 | 74.5% |
| Nc1ncnc2c1cnn2-c1ccccc1 | 95.3% |
| CC(=O)c1ccc(N2CCOCC2)cc1O | 105% |
| CCc1[nH]c(-c2ccc(OC)cc2)nc1-c1ccncc1 | 93.3% |
| CC(C)(C)n1nc(Cc2cccc3ccccc23)c2c(N)ncnc21 | 103% |
| CCCC(=O)Oc1ccc2[nH]c(C(=O)c3cc4ccccc4[nH]3)cc2c1 | 96.1% |
| O=C1NC(=O)C(c2c[nH]c3ccccc23)=C1c1c[nH]c2ccccc12 | 99.5% |

Series 4
Species: mouse
Matrix: microsomes or S9
Concentration: 2 µM
Time: 0.5 h
| SMILES | remaining compound [%] |
| --- | --- |
| NS(=O)(=O)c1ccc(-c2nc3cscc3c(=O)[nH]2)cc1 | 70.5 |
| CCc1ccc(S(=O)(=O)NCc2cccc(CS(C)(=O)=O)c2)s1 | 0.622 |
| COCC(C)(O)CNS(=O)(=O)c1ccc(N2CCCCS2(=O)=O)cc1 (stereo not drawn) | 92.8 |
| Cn1nc(CNC(=O)C2CC(=O)N(C3CCCCC3)C2)c2c1CCN(S(C)(=O)=O)C2 (stereo not drawn) | 58.9 |
| CC1CC(=O)NN=C1c1ccc(-n2ccnc2)c(F)c1 (stereo not drawn) | 65.1 |
| NC(=O)c1cccc2cc(CN3CCN(c4ccccc4Cl)CC3)oc12 | 21.3 |
| O=c1c(-c2nc3ccccc3nc2O)c[nH]n1-c1ccccc1 | 34.9 |
| COc1ccc(C(C)Nc2cncc(-c3nncn3C)c2)cc1F (stereo not drawn) | 90 |
| CC(C)(C)c1cc(-c2c(O)c3ccc(Cl)cc3[nH]c2=O)cc(C(C)(C)C)c1O | 94.1 |
| CC(C)N(C(=O)COC(=O)c1ccc(C(C)(C)C)cc1)C(C)C | < 1 |
| Brc1ccc2c3c(ccnc13)CCO2 | 0 |

Excerpt of the above (series 4):
| SMILES | remaining compound [%] |
| --- | --- |
| CCc1ccc(S(=O)(=O)NCc2cccc(CS(C)(=O)=O)c2)s1 | 0.622 |
| COCC(C)(O)CNS(=O)(=O)c1ccc(N2CCCCS2(=O)=O)cc1 (stereo not drawn) | 92.8 |
| Cn1nc(CNC(=O)C2CC(=O)N(C3CCCCC3)C2)c2c1CCN(S(C)(=O)=O)C2 (stereo not drawn) | 58.9 |
| CC1CC(=O)NN=C1c1ccc(-n2ccnc2)c(F)c1 (stereo not drawn) | 65.1 |
| NC(=O)c1cccc2cc(CN3CCN(c4ccccc4Cl)CC3)oc12 | 21.3 |
| O=c1c(-c2nc3ccccc3nc2O)c[nH]n1-c1ccccc1 | 34.9 |
